Measured values pooled from the literature.
Each numbered part is a random draw from the data of one study; scales do not carry over between parts. Changes are numbered by the printed parent chain.

Study 1 — target: CCND1, cyclin fold, Cln2 fusion (human); method: yeast growth competition, sequencing; matrix: yeast; setting: weak parent motif; baseline: not given; reading: higher = stronger binding
Parent: SLBP docking peptide (human); ARYKRKLLINDFG; partner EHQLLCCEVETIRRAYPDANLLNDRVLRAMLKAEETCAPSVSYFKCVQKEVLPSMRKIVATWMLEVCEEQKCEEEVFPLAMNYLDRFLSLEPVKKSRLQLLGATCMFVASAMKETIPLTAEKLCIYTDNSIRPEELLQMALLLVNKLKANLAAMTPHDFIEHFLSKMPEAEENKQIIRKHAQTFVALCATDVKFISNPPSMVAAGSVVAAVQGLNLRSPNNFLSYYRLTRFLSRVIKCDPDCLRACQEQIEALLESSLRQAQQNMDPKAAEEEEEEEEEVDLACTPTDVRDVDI
| Substitution | normalised enrichment score |
| --- | --- |
| ARSKRKLLINDFG [Y3S] | 0.978 |
| ARYKHKLLINDFG [R5H] | 0.125 |
| VRYKRKLLINDFG [A1V] | 0.0231 |
| ARIKRKLLINDFG [Y3I] | 0.152 |

Study 2 — method: protein binding microarray; molecule type: double-stranded DNA, one strand shown; matrix: in vitro; tested at: not given; baseline: not given; reading: higher = stronger binding
Target: Histone acetyltransferase KAT6A, both winged helices, GST fusion (KAT6A, Homo sapiens, UniProt Q92794, residues 1-181)
Setting: 8-mer, flanks averaged, mean of 2 arrays, mostly near background
Residues (chain): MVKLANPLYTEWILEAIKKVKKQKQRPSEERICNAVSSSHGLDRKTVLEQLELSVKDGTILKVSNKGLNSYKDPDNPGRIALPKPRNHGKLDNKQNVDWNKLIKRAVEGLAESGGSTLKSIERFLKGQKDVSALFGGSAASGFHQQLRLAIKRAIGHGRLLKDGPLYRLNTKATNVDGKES
| Oligonucleotide | E-score |
| --- | --- |
| AACCTGCG | 0.0916 |
| AATCGTCT | 0.0333 |
| AGCCGATC | 0.163 |
| ACTCGTGG | -0.108 |
| GACTATAA | -0.126 |
| ATGGAGTA | -0.213 |
| TCGTCGAA | -0.0759 |
| GCCCTGCC | -0.00175 |

Study 3 — method: RNA Bind-n-Seq; molecule type: RNA; matrix: in vitro; tested at: 365 nM; baseline: no-protein control; reading: higher = stronger binding
Target: RNA binding protein fox-1 homolog 2, RRM domain, GST-SBP tag (RBFOX2, Homo sapiens, UniProt O43251-10, residues 100-194)
Setting: natural RNA segment, single round, ends assumed
All sequences stand within: GGGAGUUCUACAGUCCGACGAUC … UGGAAUUCUCGGGUGCCAA
Target sequence (chain): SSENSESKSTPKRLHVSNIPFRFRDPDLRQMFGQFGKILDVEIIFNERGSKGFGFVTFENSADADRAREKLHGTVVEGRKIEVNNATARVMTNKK
| Oligonucleotide | RBNS enrichment (R) |
| --- | --- |
| GUGUCAGAAAUACUUAAACAGUGGUAAAUGCACAUGUUACUUUUAAAUCAUUAGGAUAACUCCUGUCUGGUUCCUAAUGAAUAAAAGGUGUGUUAAAUACCAAGAUUAUU | 0.604 |
| CCCCCGCUUCCUCCUAGCCCUGUGGGCAGGGGUUGGAAACUUAGCACUUUAUAUUUAUACAGAACAUUCAGGAUAUGUCAAUAAAAUAUUGUUAUAUUUAAAAAACAACA | 0.328 |
| CUCAGCAGUCCUUCAGGACUUCUGGUUCCUUCCGCCACCCUUCUCAAGAUUCUAGAAAUCAAAGGAGCCAUACAAUCCGGCAGGAGGCAGUGACUGUGGUCUCAGUGCUG | 0.464 |
| CCACCUUCCAAGCCAGUUGCAGAGCCCCUGCUAAGGACCGAGCCUGCUCACUCAUCUCAGCUCCAGCCGCACAGCCACAGCCUCAGGUCUGUUUAGCUUGGGAAGCCAAA | 0.418 |
| UUCUCUCUUCAAUUAAGGAAUUUUCAUAAUGGAAUGGUUUAAAUUGAAGUGAUAAAGAAUAUUAUUAGAAUAAAAUGUUUGUAUAUGUAUUUGUGUAUUAAAGAUGUAUU | 1.38 |
| CAGGAAGCGUUCCAGCUAUUUAAUGCUGGCAACUACUGUUUAAUGGUCAGUUAAAUCUGUGAUAAUGGUUGGAAGUGGGUGGGGUUAUGAAAUUGUAGAUGUUUUUAGAA | 1.17 |
| CUUUAGACUAUAACAUUUGUUGUAAUAAUUGCUAGGUUGAAGUUCAACAUGUAAAAAAAGGGGGCAUGGAUUUACAUUGCAAAAGGUGUCCACAGUGUAUUAGUGACAUU | 0.552 |
| GGGCUGGACCAUGUGGCCAAGCCUGCGCCUCCUGUGGCUUACCUGCCUGCCCACCCUUCGCACAUACACCCGUGGCAGGGAGUGUGGAACUGAAGACUGGCUGGAGGCAC | 0.185 |
| AUCUCUGGAUGUGCACUGUCAGUCAUGUGUCCACCAGGCCUCGAAUAUCAUAUGGGAAAUGUCAUAGUUAAAAACGUACAGCCAGGCCCGUGUGCUGUUAAUAGUGUGAA | 0.412 |
| GAAGCAGCUGUUGGAACUCCUGGUAUUAAUGGAGCCAGAGUGACAUGCAUCCUUCGUCUGUCUCAUCAGCACUGGCGUCAUUCCUUACAGUUUACAGAACUCAUGUAACU | 1.76 |

Mixed results
| Substance | target | test | system | conditions | how to read | measurement | result |
| --- | --- | --- | --- | --- | --- | --- | --- |
| PhoQ, residues 284 288 289 292 302 303 ALVSVA | PhoP, residues 12 14 15 18 19 SEGLL (Escherichia coli, UniProt P23836) | Sort-seq, refers to: YFP reporter | E. coli | PhoQ-PhoP variant library, together with: 10 µM Mg2+ | baseline: high Mg2+ state, higher = stronger signaling | fold induction | 14.8 |

Some of these lines once more (study 2):
| Oligonucleotide | E-score |
| --- | --- |
| ATGGAGTA | -0.213 |
| AACCTGCG | 0.0916 |
| AGCCGATC | 0.163 |
| AATCGTCT | 0.0333 |
